Assay results of several laboratories.
A part holds a random share of what one study measured. Positions count from the first letter of the parent shown.

Block 1
Target: RNA binding protein fox-1 homolog 2, RRM domain, GST-SBP tag (RBFOX2, Homo sapiens, UniProt O43251-10, residues 100-194)
Method: RNA Bind-n-Seq
Form: RNA
Matrix: in vitro
Tested at: 365 nM
Notes: natural RNA segment, single round, ends assumed
Baseline: no-protein control
Reading: higher = stronger binding
Target sequence (chain): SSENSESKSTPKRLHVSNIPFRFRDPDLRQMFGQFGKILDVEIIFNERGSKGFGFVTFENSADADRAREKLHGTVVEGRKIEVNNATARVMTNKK
Oligonucleotide	RBNS enrichment (R)
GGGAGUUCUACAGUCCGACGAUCAAUUAAGGACUGAGAAAUGACCAUAUCUUAAACUAUCUACGACAAAGUGAACUUAAAAGGACAUGCCCACUGAAUUCAGGUCCUUUGAGUAAAAAAAAAAUCUUCUGCUGUGGAAUUCUCGGGUGCCAA	0.623
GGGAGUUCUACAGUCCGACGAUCUUGGGUGUGGUGAGGGAGGGGACAUAUCCUAGGGUUUUCAAAUAAAACAAUCAGAAAAAAAAAAAAAGCUCUGUGAGGCGCCUCCUGACUGCCUGGUCCUGUGUGGGUGUUGGAAUUCUCGGGUGCCAA	1.32
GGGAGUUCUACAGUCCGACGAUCAAGUAAAUAAGUAUCCUUGCCAAGUGAUCAUGAGUGUCAUUUUUGUUCUAAGACUAAUAUUUUUAGAUCUUUUUACUUCACCUCAUACUUAUCACCAAUGUAUAUCUCCAUGGAAUUCUCGGGUGCCAA	0.343
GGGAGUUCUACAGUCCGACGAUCUUAUAUCAUUUUGUGGAUAUAGUUAUAAUCUGAUGGGCCUGGCUGGGAGUGGAAGAAGGGAAGCCUUUUGCAAAUAGUAGAGUAUCAGUUGCAGGUGCCAAUGACUAACUUGGAAUUCUCGGGUGCCAA	0.678
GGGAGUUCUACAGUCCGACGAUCUAAUCAUUUUGGAUUUUUUUCUUUGAAUUAUUGGCAGGGAAUAUACUUAUGUAUGGAAGAUUACUGCUCUGAGUGAAAUAAAAGUUAUUAGUGCGAGGCAAACAUAACUCUGGAAUUCUCGGGUGCCAA	0.607
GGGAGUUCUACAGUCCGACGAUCUACUGGUAACCCCUGAACCAUUUCUCCAGCCCCCUUUGCCUAUCAUCCAUCUCAAGAUAGAACCUAAGUAUUUCACGUCUGACCAGCAGUCUCUGUGGUUCUGCACAGAUUGGAAUUCUCGGGUGCCAA	1.26
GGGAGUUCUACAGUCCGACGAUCAGAAAUAAUAUGUAAGAAUGGCCUCAAGGCAGACCACUUUAAGUUUGGCUAGACUUCAUAUCGUGGAAGUAUUGUCUAUUUCAGUGUGAAACUAUCUUGAAUUUGCAAAUUGGAAUUCUCGGGUGCCAA	0.474
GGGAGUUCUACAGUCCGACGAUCUAAGUUGAUGAGCUUCUCUCUACAACAUUUCUAGAAAAUAGAAAAAAAAGCACAGAGAAAUGUUUAACUGUUUGACUCUUAUGAUACUUCUUGGAAACUAUGACAUCAAAUGGAAUUCUCGGGUGCCAA	0.599
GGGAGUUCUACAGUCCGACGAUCACUGACUUACUAAUGCAGCAGGGACUUUUAUCACUGAGUAUUAUGACAGUGUGCAUCACCUCUGGGCCAAGGACAAGCCAUUGAUCUAAAUGCCUCAGAUGCCCGGGAGGUGGAAUUCUCGGGUGCCAA	0.445
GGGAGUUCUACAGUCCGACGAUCAAGGUCUGUGGUGUCUCUGUCCGAUGGAGCAGUCUUAAAGCUUUAGUCAGCACAGGCCUAGCAAGGCCCUGACAGCCACAUCGACUGAAGAUUGUCAAGGCGAUAGAAAAUGGAAUUCUCGGGUGCCAA	0.293
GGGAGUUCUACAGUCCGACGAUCAAGAGUACAGAGGAGCAAGUUCCCAGAGCAGCAGCCACGGCAUCGUGGCCUGCAGGUGCACCCUCCUCCUCGCCACAGUCAGUCAGUUCCCGUGACAGGAAACGACCUUGUGGAAUUCUCGGGUGCCAA	0.165
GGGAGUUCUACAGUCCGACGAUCCCCCCUCGCUAGCCAUUUGGGGGUGGCAAGGGGGUGUGGUUGUUUCUCGUGGUUGUGUGUGUUUGUUGUUCGGGUUUUUAAAAGGGGAAAUUGAGACUGCAAGUGGGGGAUGGAAUUCUCGGGUGCCAA	3.96

Block 2
Target: Ras GTPase-activating protein-binding protein 1, full length (G3BP1, Homo sapiens, UniProt Q13283)
UniProt Q13283, sequence (whole entry, looked up): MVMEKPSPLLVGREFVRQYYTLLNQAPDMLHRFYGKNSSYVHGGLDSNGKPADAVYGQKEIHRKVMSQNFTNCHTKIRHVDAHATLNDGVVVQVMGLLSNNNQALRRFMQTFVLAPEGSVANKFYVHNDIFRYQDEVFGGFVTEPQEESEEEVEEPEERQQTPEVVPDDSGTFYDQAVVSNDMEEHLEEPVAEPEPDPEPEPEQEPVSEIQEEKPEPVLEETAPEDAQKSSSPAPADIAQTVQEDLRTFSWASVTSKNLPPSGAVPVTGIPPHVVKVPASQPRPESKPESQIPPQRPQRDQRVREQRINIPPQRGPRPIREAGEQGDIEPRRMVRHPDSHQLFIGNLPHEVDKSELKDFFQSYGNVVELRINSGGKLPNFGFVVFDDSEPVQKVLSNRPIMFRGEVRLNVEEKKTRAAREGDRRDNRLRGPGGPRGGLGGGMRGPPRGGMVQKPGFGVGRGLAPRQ
Method: RNA Bind-n-Seq
Form: RNA
Matrix: in vitro
Tested at: 200 nM
Notes: whole 134-nt RNA, ends assumed
With: 150 mM LiCl
Baseline: input library
Reading: higher = stronger binding
Library: 7-deaza-guanosine replaces G
Oligonucleotide	log2 enrichment
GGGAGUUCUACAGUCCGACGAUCGGCGGAGCAGCUGAUGGAGGAGUGGAACGAAGACCUAGACGGCAUGGAGGGUUUCGUGCUGGAGGGCAAGAAGUUUGCGCGGCUGCCGGAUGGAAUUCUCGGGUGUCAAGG	-1.56
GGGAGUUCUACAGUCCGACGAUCAGUCCUGUGCUACACAUCGUAUGUACCGAAUCGGGUUUUUGGGUUUUUGGGUUUUUGGAAAGUAUUAUGUUACGCCGUUCGGAUCUGCACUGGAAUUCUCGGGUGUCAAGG	-0.0222
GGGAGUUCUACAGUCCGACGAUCAGUCCUGUGCUACACAUCGUAUGUACCGAAUCGGGGCCCCCGGGCCCCCGGCCCCCGGAAAGUAUUAUGUUACGCCGUUCGGAUCUGCACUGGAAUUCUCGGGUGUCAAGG	-1.76
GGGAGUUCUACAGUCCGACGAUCGCAAGAAGUAAAAACAAAUGGAAAUGCUUCGGAUAGUGGCAGGGGUGGGGGUUGCUAAGGAAAGGGUGGGAUGGGAGUGGGUAAAGAGUUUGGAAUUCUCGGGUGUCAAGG	-0.337
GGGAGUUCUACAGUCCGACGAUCCACAGACAACACGCACCCACACAGACACAGAGGGAAGGGGUUGGGAUGGGGACAGCGUGCACAGCAGGGCGGGGUAGGACCCCAGCCCCUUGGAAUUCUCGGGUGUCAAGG	-0.737
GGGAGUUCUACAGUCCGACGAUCUGGCCCUGGUGGCAUGCGGGGAGGAAGAGGUGGCCUCAUGCAUCGUGGUGGUCCCGGUGGAAUGUUCAGAGGUGGCCGUGGUGGAGACAGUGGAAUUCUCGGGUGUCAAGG	0.132
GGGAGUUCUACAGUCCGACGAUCCAAGUCCUGUGCUACACAUCGUAUGUACCGAAUCGGGAAAAAGGGUGGGAAAGGGAAAGUAUUAUGUUACGCCGUUCGGAUCUGCACUUCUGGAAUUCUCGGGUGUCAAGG	-0.292
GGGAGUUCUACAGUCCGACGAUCCACAGACAACACGCACCCACACAGACAGAGAGGGAAGGGGUUGGGAUGGGGACAGGGUGCACAGCAGGGCGGGGUAGGACCCCAGCCCCUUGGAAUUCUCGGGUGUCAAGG	0.343
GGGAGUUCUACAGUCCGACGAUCUCAUUGCAUGAAAAGUGGAAAAGUUUAGAUCUAUGGAAACAGAACUGUUGCCUAUAUGGAAAAUCAGUGCCUUGUGGCAAUACAGGUAAGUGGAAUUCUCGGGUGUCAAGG	-2.26
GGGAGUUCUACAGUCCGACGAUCCAAGUCCUGUGCUACACAUCGUAUGUACCGAAUCGGGAAAGGGGAAAGGGAAAGGAAAGUAUUAUGUUACGCCGUUCGGAUCUGCACUUCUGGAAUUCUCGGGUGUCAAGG	-0.176
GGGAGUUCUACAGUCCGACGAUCCUCAAGUCCUGUGCUACACAUCGUAUGUACCGAAUCGGUUGGUUGGGGUUGGGAAAGUAUUAUGUUACGCCGUUCGGAUCUGCACUUCCAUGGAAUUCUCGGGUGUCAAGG	0.452

Block 3
Target: Histone acetyltransferase KAT6A, winged helix 1, GST fusion (KAT6A, Homo sapiens, UniProt Q92794, residues 1-85)
Method: protein binding microarray
Form: double-stranded DNA, one strand shown
Matrix: in vitro
Tested at: not given
Notes: 8-mer, flanks averaged, mean of 2 arrays, mostly near background
Baseline: not given
Reading: higher = stronger binding
Construct (chain): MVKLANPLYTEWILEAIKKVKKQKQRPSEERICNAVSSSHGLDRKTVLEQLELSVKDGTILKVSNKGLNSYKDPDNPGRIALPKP
Oligonucleotide	E-score
CAAATAGA	-0.214
ATCGCACA	-0.0713
CGGACAAC	-0.002
ACGTTGAA	-0.0582
CACTTTAG	-0.207
ACTCCCTG	-0.296
ATCCAGTA	-0.16
AGGTATTC	-0.139
GACAGAAA	-0.134
AGACTGAC	-0.0657
GACCAGCC	0.00826
CCATGTTA	-0.145
GAAGCGGA	0.129
AAAAGCTG	0.0142
AGATCCAG	-0.13
ACTTTAGC	-0.0637
GCAGCTGC	0.298
AGGCGAAT	-0.0997

Block 4
Target: CCNA2, cyclin fold, Cln2 fusion (human)
Method: yeast growth competition, sequencing
Matrix: yeast
Notes: strong parent motif
Baseline: not given
Reading: higher = stronger binding
Starting sequence: RBL2 docking peptide (human); STTRRRLFVENDS
Substitution	normalised enrichment score
R4Q	1.17
D12M	5.1
E10S	5.63
F8M	1.37
R6L	2.96
R4M	0.904
S1A	5.01
L7V	0.904
F8L	1.62
T2C	5.14
E10L	3.84
E10G	5.42
N11K	5.48
L7W	0.396
E10Y	4.02
N11C	6.17
S13A	6.05

Repeated from above (block 3):
Oligonucleotide	E-score
CGGACAAC	-0.002
ACGTTGAA	-0.0582
ACTCCCTG	-0.296
CACTTTAG	-0.207
GCAGCTGC	0.298
CAAATAGA	-0.214
AGATCCAG	-0.13
ACTTTAGC	-0.0637
